Results pooled from the literature.
Compare with care: the assays were run in different laboratories. ± marks the error that the study gave.
OPRM1: Mu-type opioid receptor (OPRM1, Homo sapiens, UniProt P35372)
Chain of UniProt P35372 (whole entry, looked up): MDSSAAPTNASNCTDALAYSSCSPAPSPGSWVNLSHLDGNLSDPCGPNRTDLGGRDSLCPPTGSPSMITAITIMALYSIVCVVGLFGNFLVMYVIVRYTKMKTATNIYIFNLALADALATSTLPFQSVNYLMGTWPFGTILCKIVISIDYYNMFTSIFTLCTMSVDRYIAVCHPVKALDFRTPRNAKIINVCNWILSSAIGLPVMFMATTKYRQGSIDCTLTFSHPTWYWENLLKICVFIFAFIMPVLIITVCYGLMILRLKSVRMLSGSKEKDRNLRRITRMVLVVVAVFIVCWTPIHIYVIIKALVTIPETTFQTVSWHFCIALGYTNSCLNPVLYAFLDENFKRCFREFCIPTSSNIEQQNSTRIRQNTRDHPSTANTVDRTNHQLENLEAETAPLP
Chain of UniProt P41143 (whole entry, looked up): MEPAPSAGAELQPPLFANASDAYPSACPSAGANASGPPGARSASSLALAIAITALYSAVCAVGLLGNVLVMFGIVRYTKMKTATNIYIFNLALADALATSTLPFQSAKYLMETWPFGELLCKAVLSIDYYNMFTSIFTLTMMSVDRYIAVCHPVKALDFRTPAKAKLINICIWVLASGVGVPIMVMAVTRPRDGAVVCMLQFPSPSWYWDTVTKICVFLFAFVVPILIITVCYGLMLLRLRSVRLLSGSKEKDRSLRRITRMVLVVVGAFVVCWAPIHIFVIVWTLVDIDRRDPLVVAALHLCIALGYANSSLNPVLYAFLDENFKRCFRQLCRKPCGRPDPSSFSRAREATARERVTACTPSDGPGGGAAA
Chain of UniProt Q9Y5Y9 (whole entry, looked up): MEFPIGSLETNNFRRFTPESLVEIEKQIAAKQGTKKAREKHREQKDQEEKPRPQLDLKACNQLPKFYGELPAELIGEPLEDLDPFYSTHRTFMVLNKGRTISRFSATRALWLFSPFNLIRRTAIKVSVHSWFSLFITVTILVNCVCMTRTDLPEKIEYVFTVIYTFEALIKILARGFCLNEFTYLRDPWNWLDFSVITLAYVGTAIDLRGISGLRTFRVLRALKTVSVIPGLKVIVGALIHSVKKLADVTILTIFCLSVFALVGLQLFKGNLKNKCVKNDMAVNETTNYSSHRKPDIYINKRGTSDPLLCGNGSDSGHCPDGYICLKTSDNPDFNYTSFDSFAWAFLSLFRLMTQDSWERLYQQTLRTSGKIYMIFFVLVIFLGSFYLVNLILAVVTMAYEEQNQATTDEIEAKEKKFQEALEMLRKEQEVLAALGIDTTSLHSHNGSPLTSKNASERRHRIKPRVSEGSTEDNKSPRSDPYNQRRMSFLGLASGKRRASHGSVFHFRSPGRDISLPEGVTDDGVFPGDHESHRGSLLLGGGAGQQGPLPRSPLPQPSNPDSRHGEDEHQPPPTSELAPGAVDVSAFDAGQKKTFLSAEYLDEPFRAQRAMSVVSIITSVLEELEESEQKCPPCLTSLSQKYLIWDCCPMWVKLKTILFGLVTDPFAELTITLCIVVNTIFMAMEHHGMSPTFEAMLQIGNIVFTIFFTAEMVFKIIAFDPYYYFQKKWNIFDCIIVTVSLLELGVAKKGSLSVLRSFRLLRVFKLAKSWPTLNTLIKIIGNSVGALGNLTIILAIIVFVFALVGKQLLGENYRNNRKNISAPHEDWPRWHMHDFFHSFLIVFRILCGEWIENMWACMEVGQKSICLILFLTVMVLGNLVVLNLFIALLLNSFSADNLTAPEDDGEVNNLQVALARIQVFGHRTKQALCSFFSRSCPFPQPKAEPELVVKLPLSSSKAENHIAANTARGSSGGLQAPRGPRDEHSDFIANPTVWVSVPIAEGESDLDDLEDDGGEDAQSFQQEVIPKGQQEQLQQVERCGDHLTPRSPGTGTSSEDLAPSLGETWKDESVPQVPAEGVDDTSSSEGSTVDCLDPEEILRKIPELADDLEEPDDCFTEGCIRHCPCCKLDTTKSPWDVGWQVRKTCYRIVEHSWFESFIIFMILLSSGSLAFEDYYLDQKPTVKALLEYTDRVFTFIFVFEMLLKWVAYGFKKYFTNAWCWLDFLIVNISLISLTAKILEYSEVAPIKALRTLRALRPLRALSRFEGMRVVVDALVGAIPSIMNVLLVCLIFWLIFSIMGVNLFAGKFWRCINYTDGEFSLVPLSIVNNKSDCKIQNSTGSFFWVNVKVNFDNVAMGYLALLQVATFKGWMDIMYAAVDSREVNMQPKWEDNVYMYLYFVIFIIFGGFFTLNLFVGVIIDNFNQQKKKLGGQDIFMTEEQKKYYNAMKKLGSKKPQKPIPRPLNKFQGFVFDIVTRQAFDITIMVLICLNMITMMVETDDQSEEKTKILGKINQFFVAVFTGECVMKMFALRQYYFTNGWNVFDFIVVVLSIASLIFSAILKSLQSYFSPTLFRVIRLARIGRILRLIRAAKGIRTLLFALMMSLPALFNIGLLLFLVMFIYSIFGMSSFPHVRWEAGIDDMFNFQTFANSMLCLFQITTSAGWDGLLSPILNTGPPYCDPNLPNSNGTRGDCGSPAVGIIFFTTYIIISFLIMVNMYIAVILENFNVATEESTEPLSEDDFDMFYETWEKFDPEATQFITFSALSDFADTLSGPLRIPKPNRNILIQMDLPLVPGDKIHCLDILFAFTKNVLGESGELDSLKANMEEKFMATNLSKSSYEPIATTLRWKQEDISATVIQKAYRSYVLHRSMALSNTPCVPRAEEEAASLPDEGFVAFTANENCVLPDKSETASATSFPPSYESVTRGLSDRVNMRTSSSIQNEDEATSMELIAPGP

With `C[C@H](c1cccc2ccccc12)N1CCC(C(=O)NCc2cc(F)cc(NC(=O)N3CCN(C)CC3)c2)CC1` the EC50 was 880 nM (Severe acute respiratory syndrome coronavirus 2; viral replication; hACE2-HeLa; 48 h).
The EC50 of `Cc1cc(O)cc(C)c1C[C@H](N)C(=O)NCC(=O)NCC(=O)N[C@@H](Cc1ccccc1)C(=O)N[C@H](C(=O)NCC(=O)N[C@@H](C)C(=O)N[C@@H](CCCNC(=N)N)C(=O)N[C@@H](CCCCN)C(=O)N[C@@H](CO)C(=O)N[C@@H](C)C(=O)N[C@@H](CCCNC(=N)N)C(=O)N[C@@H](CCCCN)C(N)=O)[C@@H](C)O` is reported as 2.63 nM (OPRM1; GTPγS binding, agonist, radiometric; cell membranes).
`O=C(c1ccc([N+](=O)[O-])c(-n2ccnc2)c1)N(c1cccc(Cl)c1)c1nc2ccccc2s1` gave an EC50 of 7200 nM (Severe acute respiratory syndrome coronavirus 2; viral replication, inhibitor; A549-ACE2).
With `CCCCCCCCCCCCCCCCCC(=O)N[C@@H](CCC(=O)NCCCC[C@H](NC(=O)[C@H](CCC(N)=O)NC(=O)[C@H](CCCCN)NC(=O)[C@H](CO)NC(=O)[C@H](CC(C)C)NC(=O)[C@H](CC(=O)O)NC(=O)[C@H](CO)NC(=O)[C@@H](NC(=O)[C@H](Cc1ccccc1)NC(=O)[C@@H](NC(=O)CNC(=O)[C@H](CCC(N)=O)NC(=O)[C@@H](CO)NC(=O)[C@@H](N)Cc1c[nH]cn1)[C@@H](C)O)[C@@H](C)O)C(=O)N[C@@H](CC(=O)O)C(=O)N[C@@H](CCC(=O)O)C(=O)N[C@@H](CCC(N)=O)C(=O)N[C@@H](CC(C)C)C(=O)N[C@@H](C)C(=O)N[C@@H](CCCCN)C(=O)N[C@@H](CC(=O)O)C(=O)N[C@@H](Cc1ccccc1)C(=O)N[C@H](C(=O)N[C@@H](CCC(=O)O)C(=O)N[C@@H](Cc1c[nH]c2ccccc12)C(=O)N[C@@H](CC(C)C)C(=O)N[C@@H](CCCCN)C(=O)N[C@@H](C)C(=O)NCC(=O)NCC(=O)N1CCC[C@H]1C(=O)N[C@@H](CO)C(=O)N[C@@H](CO)C(=O)NCC(=O)N[C@@H](C)C(=O)N1CCC[C@H]1C(=O)N1CCC[C@H]1C(=O)N1CCC[C@H]1C(=O)N[C@@H](CO)C(N)=O)[C@@H](C)CC)C(=O)O` the ALT was 50.9 ± 16.3 U/L (obese diabetic cynomolgus monkey, serum; dose not given, day 43).
`CC(C)C[C@H](NC(=O)[C@H](CO)NC(=O)[C@H](CCCCN)NC(=O)[C@H](CC(C)C)NC(=O)C(C)(C)NC(=O)[C@H](CCCCN)NC(=O)[C@H](CCC(=O)O)NC(=O)[C@H](C)NC(=O)[C@H](CC(C)C)NC(=O)[C@H](CC(N)=O)NC(=O)[C@@H]1CCCN1C(=O)[C@H](CC(C)C)NC(=O)[C@H](Cc1ccccc1)NC(=O)CNC(=O)[C@H](NC(=O)[C@@H](N)Cc1ccc(O)cc1)[C@H](C)O)C(N)=O` has a Ki of 29 ± 0.67 nM (OPRM1; radioligand displacement; CHO membranes; 60 min, pH 7.5, 25 °C, added: 0.25 nM [3H]DAMGO).
`CC(C)C[C@H](NC(=O)[C@@H](NC(=O)OCc1ccccc1)[C@@H](C)OC(C)(C)C)C(=O)N[C@H](C=O)C[C@@H]1CCNC1=O` has an EC50 of 210 ± 20 nM (Severe acute respiratory syndrome coronavirus 2; viral replication, plaque reduction; Vero E6, USA-WA1/2020; 3 days).
The EC50 of `Cc1c(C(=O)N2c3ccccc3NC(=O)C2CC(=O)Nc2ccc(Cl)c(Cl)c2)oc2ccccc12` (stereo not drawn) is reported as 4700 nM (Severe acute respiratory syndrome coronavirus 2; viral replication, inhibitor; A549-ACE2).
For `CS(=O)(=O)Nc1ccc(-c2cncc(-c3cccc4[nH]ccc34)c2)cc1`, the EC50 was 600 nM (Severe acute respiratory syndrome coronavirus 2; viral replication, inhibitor, luciferase; Calu-3).
For `CC(C)[C@H](NC(=O)OCc1ccccc1)C(=O)N[C@@H](Cc1ccccc1)C(=O)N[C@H](C=O)C[C@@H]1CCNC1=O`, the EC50 was greater than 5000 nM (Severe acute respiratory syndrome coronavirus 2; viral replication, plaque reduction; Vero E6, USA-WA1/2020; 3 days).
`OC[C@H]1O[C@@H](Oc2cc3c(O)cc(O)cc3[o+]c2-c2ccc(O)c(O)c2)[C@H](O)[C@@H](O)[C@@H]1O` has an EC50 of greater than 100000 nM (Severe acute respiratory syndrome coronavirus 2; antiviral activity; Huh-7; 96 h).
For `CC(C)[C@H](NC(=O)OCc1ccccc1)C(=O)N[C@@H](CC1CCCCC1)C(=O)N[C@H](C=O)C[C@@H]1CCNC1=O`, the EC50 was 73 ± 7 nM (Severe acute respiratory syndrome coronavirus 2; viral replication, plaque reduction; Vero E6, USA-WA1/2020; 3 days).
`CC(C)C[C@H](NC(=O)OCc1ccccc1)C(=O)N[C@@H](C[C@@H]1CCNC1=O)C(O)S(=O)(=O)O` (stereo partly drawn) gave an EC50 of 4480 nM (Severe acute respiratory syndrome coronavirus 2; viral replication, inhibitor; Vero C1008; 72 h).
The EC50 of `CC(C)=CCc1c(O)ccc(C(=O)C2C(c3c(O)cc(O)c4c(=O)c(CC=C(C)C)c(-c5ccc(O)cc5O)oc34)C=C(C)CC2c2ccc(O)cc2O)c1O` (stereo not drawn) is reported as greater than 100000 nM (Severe acute respiratory syndrome coronavirus 2; antiviral activity; Huh-7; 96 h).
With `CCCCCCCCCCCCCCCC(=O)N[C@@H](CCC(=O)NCCOCCOCCC(=O)NCCOCCOCCC(=O)NCCCC[C@H](NC(=O)[C@H](CC(=O)O)NC(=O)[C@H](CC(C)C)NC(=O)[C@H](Cc1ccc(O)cc1)NC(=O)[C@H](CCCCN)NC(=O)[C@H](CO)NC(=O)[C@H](Cc1ccc(O)cc1)NC(=O)[C@H](CC(=O)O)NC(=O)[C@H](CO)NC(=O)[C@@H](NC(=O)[C@H](Cc1ccccc1)NC(=O)[C@@H](NC(=O)CNC(=O)[C@H](CCC(N)=O)NC(=O)[C@@H](CO)NC(=O)[C@@H](N)Cc1c[nH]cn1)[C@@H](C)O)[C@@H](C)O)C(=O)N[C@@H](CCCNC(=N)N)C(=O)N[C@@H](CCCNC(=N)N)C(=O)N[C@@H](C)C(=O)N[C@@H](CCC(N)=O)C(=O)N[C@@H](CC(=O)O)C(=O)N[C@@H](Cc1ccccc1)C(=O)N[C@H](C(=O)N[C@@H](CCC(N)=O)C(=O)N[C@@H](Cc1c[nH]c2ccccc12)C(=O)N[C@@H](CC(C)C)C(=O)N[C@@H](CC(C)C)C(=O)N[C@@H](CC(N)=O)C(=O)N[C@H](C(=O)NCC(=O)NCC(=O)N1CCC[C@H]1C(=O)N[C@@H](CO)C(=O)N[C@@H](CO)C(=O)NCC(=O)N[C@@H](C)C(=O)N1CCC[C@H]1C(=O)N1CCC[C@H]1C(=O)N1CCC[C@H]1C(=O)N[C@@H](CO)C(N)=O)[C@@H](C)O)C(C)C)C(=O)O` the creatinine was 23.4 ± 1.8 µmol/L (Sprague-Dawley rat, male; subcutaneous, 100 µg/kg once daily, 14 days).
`O=C1C=CC(=O)C=C1` has an EC50 of greater than 100000 nM (Severe acute respiratory syndrome coronavirus 2; antiviral activity; Huh-7; 96 h).
`CC(C)C[C@H](NC(=O)[C@H](CO[C@@H]1O[C@H](CO)[C@@H](O)[C@H](O)[C@H]1O)NC(=O)[C@H](CCCCN)NC(=O)[C@H](CC(C)C)NC(=O)C(C)(C)NC(=O)[C@H](CCCCN)NC(=O)[C@H](CCC(=O)O)NC(=O)C(C)(C)NC(=O)[C@H](CC(C)C)NC(=O)[C@H](CC(N)=O)NC(=O)[C@@H]1CCCN1C(=O)[C@H](CC(C)C)NC(=O)[C@H](Cc1ccccc1)NC(=O)CNC(=O)[C@H](NC(=O)[C@@H](N)Cc1ccc(O)cc1)[C@H](C)O)C(N)=O` gave a Ki of 11 nM (OPRD1 (Homo sapiens, UniProt P41143); ligand displacement, radioligand; pH 7.5, cell membranes).
For `CC(C)C[C@@H]1NC(=O)[C@H](CCCNC(=N)N)NC(=O)[C@@H]2CCCN2C(=O)[C@@H]2CSSC[C@H](NC(=O)CNC(=O)[C@@H]3CCCN3C(=O)[C@H](CCCCN)NC(=O)[C@H](CC(=O)O)NC(=O)[C@@H](NC(=O)CN)C(C)C)C(=O)N[C@@H](CCCNC(=N)N)C(=O)N[C@@H](Cc3ccc(O)cc3)C(=O)N[C@@H](CC(C)C)C(=O)N[C@@H](Cc3ccccc3)C(=O)NCC(=O)NCC(=O)N[C@H]3CSSC[C@H](NC(=O)CNC1=O)C(=O)N[C@@H](CCCCN)C(=O)NCC(=O)N[C@@H](CCCCN)C(=O)NCC(=O)N[C@@H](Cc1c[nH]cn1)C(=O)N[C@@H](CC(=O)O)C(=O)N[C@@H](Cc1ccc(O)cc1)C(=O)N[C@H](C(=O)N[C@@H](C)C(=O)N[C@@H](Cc1c[nH]c4ccccc14)C(=O)N[C@@H](CC(=O)O)C(=O)NCC(=O)N[C@H](C(=O)N[C@@H](Cc1ccccc1)C(=O)N[C@@H](CO)C(=O)N[C@@H](CC(=O)O)C(=O)O)[C@@H](C)O)CSSC[C@H](NC(=O)[C@H](CC(=O)O)NC(=O)[C@H](CC(=O)O)NC(=O)[C@H](CC(=O)O)NC(=O)[C@H](CO)NC(=O)[C@H](CCCCN)NC3=O)C(=O)N2`, the activation V0.5 was -14.5 ± 0.8 mV (SCN10A (Homo sapiens, UniProt Q9Y5Y9); 1 µM).
`NC(Cc1cc(O)c(O)cc1O)C(=O)O` (racemic) gave an EC50 of greater than 100000 nM (Severe acute respiratory syndrome coronavirus 2; antiviral activity; Huh-7; 96 h).

Excerpt of the above:
For `CC(C)[C@H](NC(=O)OCc1ccccc1)C(=O)N[C@@H](Cc1ccccc1)C(=O)N[C@H](C=O)C[C@@H]1CCNC1=O`, the EC50 was greater than 5000 nM (Severe acute respiratory syndrome coronavirus 2; viral replication, plaque reduction; Vero E6, USA-WA1/2020; 3 days).
